Experimental data of several laboratories.
Lines come from different studies, so protocols differ. ± marks the error that the study gave.

Structure (SMILES)	cell line	test	setting	how to read	viability
Oc1cc2nc(c1)CNCc1cc(O)cc(n1)CNC2	HT-22	WST-8	100 µM, 24 h pretreatment, added: H2O2 600 µM for 4 h	baseline: untreated	> 90%
COc1ccc(-c2coc3c(CC=C(C)C)c(O)c(CC=C(C)C)c(O)c3c2=O)cc1O	A549	cell growth or viability, MTT	25 µg/mL		114%
CC[C@H](C)[C@H](NC(=O)[C@H](C)NC(=O)CNC(=O)[C@H](Cc1ccccc1)NC(=O)[C@H](CC(N)=O)NC(=O)[C@H](CC(N)=O)NC(=O)[C@H](CO)NC(=O)[C@H](CO)NC(=O)[C@H](Cc1c[nH]cn1)NC(=O)[C@@H](NC(=O)[C@H](CC(C)C)NC(=O)[C@H](Cc1ccccc1)NC(=O)[C@H](CC(N)=O)NC(=O)[C@H](C)NC(=O)[C@H](CC(C)C)NC(=O)[C@H](CCCNC(=N)N)NC(=O)[C@H](CCC(N)=O)NC(=O)[C@@H](NC(=O)[C@H](C)NC(=O)[C@@H]1CSSC[C@H](NC(=O)[C@@H](N)CCCCN)C(=O)N[C@@H](CC(N)=O)C(=O)N[C@@H]([C@@H](C)O)C(=O)N[C@@H](C)C(=O)N[C@@H]([C@@H](C)O)C(=O)N1)[C@@H](C)O)C(C)C)C(=O)N[C@@H](CC(C)C)C(=O)N[C@@H](CO)C(=O)N[C@@H](CO)C(=O)N[C@H](C(=O)N[C@@H](CC(N)=O)C(=O)N[C@H](C(=O)NCC(=O)N[C@@H](CO)C(=O)N[C@@H](CC(N)=O)C(=O)N[C@H](C(=O)N[C@@H](Cc1ccc(O)cc1)C(N)=O)[C@@H](C)O)C(C)C)[C@@H](C)O	INS-1	AlamarBlue	21 µM, 48 h	baseline: medium alone	54 ± 5%
CC(C)=CCc1c2c(c(O)c3c(=O)c(-c4ccc(O)cc4)coc13)CC(C(C)(C)O)O2 (stereo not drawn)	A549	cell growth or viability, MTT	25 µg/mL		9.75%
O=C(N[C@@H](Cn1cncn1)c1ccc(F)cc1F)c1ccc(-c2nnc(-c3ccccc3)o2)cc1	NIH/3T3	BrdU incorporation	50 µM, 24 h	baseline: DMSO	101 ± 1.4%
CN1CCN(C)CCN(Cc2c(O)ccc3nc(-c4ccc(N(C)C)nc4)sc23)CC1	Neuro2A	Alamar Blue	up to 10 µM, 40 h	baseline: 1% DMSO vehicle	> 80%
CCCCCCCCCCN1C(=O)/C(=N\NC(N)=S)c2cc(C)ccc21	BJ	cell growth or viability, MTT	18 µg/mL, 24 h		~80%
Cc1nc(C)c(C=[N+]([O-])C(C)(C)C)nc1C	Sprague-Dawley rat primary midbrain neurons		30 µM, 24 h	baseline: untreated	97.8 ± 2.34%
CC(=O)c1c(C)c2cnc(Nc3ccc(N4CCNCC4)cn3)nc2n(C2CCCC2)c1=O	mAb-expressing recombinant CHO		5 to 10 µM, 5 days	baseline: untreated	not toxic

For quick reference, copied from above:
Structure (SMILES)	cell line	test	setting	how to read	viability
COc1ccc(-c2coc3c(CC=C(C)C)c(O)c(CC=C(C)C)c(O)c3c2=O)cc1O	A549	cell growth or viability, MTT	25 µg/mL		114%
